# Assay results pooled from the literature.
# A part holds a random share of what one study measured. Several values in a cell are separate wells, animals, samples, runs or records.
# Sequence of UniProt O15146 (whole entry, looked up): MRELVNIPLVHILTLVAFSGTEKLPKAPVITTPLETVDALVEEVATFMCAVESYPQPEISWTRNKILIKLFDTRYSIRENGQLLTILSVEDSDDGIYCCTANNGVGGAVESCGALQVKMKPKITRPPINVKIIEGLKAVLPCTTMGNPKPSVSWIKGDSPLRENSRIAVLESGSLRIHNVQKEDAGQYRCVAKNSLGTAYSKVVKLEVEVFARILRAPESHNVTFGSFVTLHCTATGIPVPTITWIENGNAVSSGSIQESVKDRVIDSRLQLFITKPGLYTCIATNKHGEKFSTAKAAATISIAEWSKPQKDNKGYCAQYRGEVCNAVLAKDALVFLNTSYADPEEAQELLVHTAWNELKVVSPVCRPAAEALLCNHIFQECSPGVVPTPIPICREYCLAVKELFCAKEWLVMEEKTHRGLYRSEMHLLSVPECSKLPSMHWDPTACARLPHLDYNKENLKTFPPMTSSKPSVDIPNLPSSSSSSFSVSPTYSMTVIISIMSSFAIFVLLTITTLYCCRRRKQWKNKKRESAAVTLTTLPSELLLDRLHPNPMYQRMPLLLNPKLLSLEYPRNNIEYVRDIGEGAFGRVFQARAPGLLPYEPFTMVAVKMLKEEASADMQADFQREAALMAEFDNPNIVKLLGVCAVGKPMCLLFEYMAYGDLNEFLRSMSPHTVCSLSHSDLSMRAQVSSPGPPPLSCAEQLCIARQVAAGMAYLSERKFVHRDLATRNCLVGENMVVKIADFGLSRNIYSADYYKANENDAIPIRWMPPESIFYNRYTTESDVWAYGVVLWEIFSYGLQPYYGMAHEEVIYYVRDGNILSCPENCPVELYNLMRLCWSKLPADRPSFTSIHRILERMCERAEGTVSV
# Sequence of UniProt P45983 (whole entry, looked up): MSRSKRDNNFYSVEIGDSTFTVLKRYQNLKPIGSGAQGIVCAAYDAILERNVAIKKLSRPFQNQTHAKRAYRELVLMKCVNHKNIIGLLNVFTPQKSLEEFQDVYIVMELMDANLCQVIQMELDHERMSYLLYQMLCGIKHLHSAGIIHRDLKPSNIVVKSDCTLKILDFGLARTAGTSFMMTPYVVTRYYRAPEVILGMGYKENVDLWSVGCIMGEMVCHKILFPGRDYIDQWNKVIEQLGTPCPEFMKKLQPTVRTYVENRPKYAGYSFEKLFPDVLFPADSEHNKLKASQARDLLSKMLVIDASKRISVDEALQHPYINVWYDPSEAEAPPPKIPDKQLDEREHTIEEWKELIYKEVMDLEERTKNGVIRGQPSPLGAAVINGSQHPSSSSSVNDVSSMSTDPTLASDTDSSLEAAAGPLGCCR
# Sequence of UniProt Q9UM73 (whole entry, unmodified, looked up): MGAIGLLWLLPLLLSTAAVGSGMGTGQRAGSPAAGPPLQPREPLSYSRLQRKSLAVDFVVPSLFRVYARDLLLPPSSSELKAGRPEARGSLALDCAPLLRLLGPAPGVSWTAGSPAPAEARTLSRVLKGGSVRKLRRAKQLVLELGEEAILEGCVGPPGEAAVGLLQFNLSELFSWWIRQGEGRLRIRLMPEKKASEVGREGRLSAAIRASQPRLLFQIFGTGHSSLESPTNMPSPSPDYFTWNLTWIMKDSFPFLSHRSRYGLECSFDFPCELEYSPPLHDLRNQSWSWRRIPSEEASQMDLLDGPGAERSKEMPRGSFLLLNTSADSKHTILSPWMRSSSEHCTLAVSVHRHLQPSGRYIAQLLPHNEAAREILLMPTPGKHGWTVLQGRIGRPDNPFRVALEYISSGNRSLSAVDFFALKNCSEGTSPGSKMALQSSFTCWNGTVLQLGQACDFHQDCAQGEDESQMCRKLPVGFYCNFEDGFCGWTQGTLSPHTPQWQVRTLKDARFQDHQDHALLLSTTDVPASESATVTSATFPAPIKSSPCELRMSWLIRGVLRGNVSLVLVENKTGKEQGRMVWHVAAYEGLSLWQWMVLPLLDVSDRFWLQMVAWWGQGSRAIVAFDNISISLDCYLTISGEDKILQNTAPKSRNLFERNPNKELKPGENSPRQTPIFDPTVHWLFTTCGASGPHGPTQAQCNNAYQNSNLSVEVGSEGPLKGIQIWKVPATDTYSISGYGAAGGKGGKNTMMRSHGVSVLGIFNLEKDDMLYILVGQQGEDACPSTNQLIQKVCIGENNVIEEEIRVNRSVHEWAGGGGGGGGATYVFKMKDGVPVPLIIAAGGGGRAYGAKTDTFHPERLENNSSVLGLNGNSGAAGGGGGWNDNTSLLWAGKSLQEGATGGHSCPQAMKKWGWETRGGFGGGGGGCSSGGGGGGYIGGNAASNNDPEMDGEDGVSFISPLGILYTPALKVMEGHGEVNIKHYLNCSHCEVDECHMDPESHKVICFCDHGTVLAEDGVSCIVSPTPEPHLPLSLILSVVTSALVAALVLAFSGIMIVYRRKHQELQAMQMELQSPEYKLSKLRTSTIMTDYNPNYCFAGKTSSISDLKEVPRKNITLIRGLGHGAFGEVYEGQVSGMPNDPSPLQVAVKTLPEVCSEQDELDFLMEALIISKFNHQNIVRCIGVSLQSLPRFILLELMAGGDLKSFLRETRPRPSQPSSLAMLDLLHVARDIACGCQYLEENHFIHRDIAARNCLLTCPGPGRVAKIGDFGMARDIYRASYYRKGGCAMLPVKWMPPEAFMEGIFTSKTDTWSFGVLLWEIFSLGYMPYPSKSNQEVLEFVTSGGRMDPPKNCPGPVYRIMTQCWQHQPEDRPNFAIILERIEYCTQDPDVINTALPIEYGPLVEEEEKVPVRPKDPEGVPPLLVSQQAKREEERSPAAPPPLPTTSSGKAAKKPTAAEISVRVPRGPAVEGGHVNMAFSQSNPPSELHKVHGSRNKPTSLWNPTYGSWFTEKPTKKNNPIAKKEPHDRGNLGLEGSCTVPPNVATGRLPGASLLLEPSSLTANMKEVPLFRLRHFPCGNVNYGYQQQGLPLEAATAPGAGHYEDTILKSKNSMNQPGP
# Sequence of UniProt P37023 (whole entry, looked up): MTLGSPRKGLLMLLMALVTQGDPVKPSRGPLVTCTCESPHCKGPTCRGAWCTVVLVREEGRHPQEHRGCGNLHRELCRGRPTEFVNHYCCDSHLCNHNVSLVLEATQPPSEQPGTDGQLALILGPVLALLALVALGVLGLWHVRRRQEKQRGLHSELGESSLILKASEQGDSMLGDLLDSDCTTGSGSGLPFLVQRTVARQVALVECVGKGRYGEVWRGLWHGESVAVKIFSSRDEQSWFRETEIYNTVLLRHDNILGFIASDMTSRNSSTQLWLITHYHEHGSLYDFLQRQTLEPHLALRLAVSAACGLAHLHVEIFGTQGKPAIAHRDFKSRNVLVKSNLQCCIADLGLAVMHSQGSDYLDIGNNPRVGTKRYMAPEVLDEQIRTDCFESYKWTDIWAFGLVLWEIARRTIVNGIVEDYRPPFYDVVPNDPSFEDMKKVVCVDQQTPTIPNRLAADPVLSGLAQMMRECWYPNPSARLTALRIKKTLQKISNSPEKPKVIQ

# Sample 1
# Compound: C=CCc1ccc(O)c(-c2cc(CC=C)ccc2O)c1
# Target: Anoctamin-1 (ANO1, Homo sapiens, UniProt Q5XXA6, del476-501)
# Sequence of UniProt Q5XXA6 (whole entry, unmodified, looked up): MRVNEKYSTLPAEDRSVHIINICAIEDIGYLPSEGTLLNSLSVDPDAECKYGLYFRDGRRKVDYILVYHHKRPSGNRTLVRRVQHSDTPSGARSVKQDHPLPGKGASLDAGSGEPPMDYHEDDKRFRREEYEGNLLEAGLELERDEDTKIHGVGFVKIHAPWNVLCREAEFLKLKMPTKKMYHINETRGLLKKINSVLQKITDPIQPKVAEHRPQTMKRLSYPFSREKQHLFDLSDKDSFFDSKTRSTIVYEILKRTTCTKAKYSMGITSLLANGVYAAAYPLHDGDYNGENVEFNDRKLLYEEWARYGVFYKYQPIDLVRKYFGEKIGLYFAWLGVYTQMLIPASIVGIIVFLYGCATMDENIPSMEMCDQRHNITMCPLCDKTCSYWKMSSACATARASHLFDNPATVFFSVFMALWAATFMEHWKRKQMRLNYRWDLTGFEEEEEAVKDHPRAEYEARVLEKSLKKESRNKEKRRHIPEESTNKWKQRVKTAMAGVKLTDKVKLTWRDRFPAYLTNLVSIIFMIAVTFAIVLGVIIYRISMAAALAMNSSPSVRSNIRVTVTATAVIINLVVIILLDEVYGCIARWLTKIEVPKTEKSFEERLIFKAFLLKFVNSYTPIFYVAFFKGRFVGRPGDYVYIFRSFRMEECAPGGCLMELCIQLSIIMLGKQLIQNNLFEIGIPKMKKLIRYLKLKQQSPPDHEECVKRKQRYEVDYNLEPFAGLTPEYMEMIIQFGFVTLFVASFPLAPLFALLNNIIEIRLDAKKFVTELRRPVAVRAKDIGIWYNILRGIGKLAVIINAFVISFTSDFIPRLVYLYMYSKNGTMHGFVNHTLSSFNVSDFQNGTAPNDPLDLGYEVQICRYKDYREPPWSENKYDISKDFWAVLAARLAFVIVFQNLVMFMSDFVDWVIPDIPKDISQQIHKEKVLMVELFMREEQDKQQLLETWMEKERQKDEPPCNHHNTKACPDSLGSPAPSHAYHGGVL
# Effect on: chloride current
# Method: whole-cell patch clamp
conditions,normalised current
"3 µM, 40 mV, 300 nM free Ca2+",0.192
"100 µM, 80 mV, 300 nM free Ca2+",0.166
"10 µM, -80 mV, 300 nM free Ca2+",-0.0701
"100 µM, 80 mV, 300 nM free Ca2+, together with: honokiol and magnolol 3 µM",0.0849
"1 µM, 80 mV, 300 nM free Ca2+",0.615
"10 µM, -60 mV, 300 nM free Ca2+, together with: honokiol and magnolol 3 µM",-0.0565
"30 µM, 80 mV, 300 nM free Ca2+, together with: honokiol and magnolol 3 µM",0.179
"3 µM, 20 mV, 300 nM free Ca2+",0.0745
"1 µM, -80 mV, 300 nM free Ca2+",-0.0968
"100 µM, 100 mV, 300 nM free Ca2+, together with: honokiol and magnolol 3 µM",0.146
"30 µM, 80 mV, 300 nM free Ca2+",0.29

# Sample 2
# Target: Calcium/calmodulin-dependent protein kinase type II subunit alpha (CAMK2A, Homo sapiens, UniProt Q9UQM7)
# Sequence of UniProt Q9UQM7 (whole entry, looked up): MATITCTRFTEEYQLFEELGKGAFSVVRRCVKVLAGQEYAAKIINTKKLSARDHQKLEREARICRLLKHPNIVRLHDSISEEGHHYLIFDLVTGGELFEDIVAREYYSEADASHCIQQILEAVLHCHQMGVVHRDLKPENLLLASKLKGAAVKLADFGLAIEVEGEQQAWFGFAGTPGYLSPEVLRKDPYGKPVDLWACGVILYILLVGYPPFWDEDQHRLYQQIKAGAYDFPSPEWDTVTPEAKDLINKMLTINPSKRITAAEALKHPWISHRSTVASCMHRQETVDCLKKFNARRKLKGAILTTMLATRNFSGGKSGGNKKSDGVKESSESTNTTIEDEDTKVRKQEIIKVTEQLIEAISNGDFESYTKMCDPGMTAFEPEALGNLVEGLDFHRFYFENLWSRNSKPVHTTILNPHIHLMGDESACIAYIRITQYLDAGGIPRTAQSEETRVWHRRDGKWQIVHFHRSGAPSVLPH
# Effect on: enzyme activity
# Action: inhibitor
# Tested at: 10 µM
Compound,inhibition [%]
O=C1CC(c2ccc(O)cc2)Oc2ccccc21 (centres unmarked),-17
NC(=O)CC[C@@H](N)C(=O)O,-5
Oc1cc(O)c2c(c1)O[C@@]1(c3ccc(O)c(O)c3)Oc3cc(O)c4c(c3[C@@H]2[C@H]1O)O[C@H](c1ccc(O)c(O)c1)[C@@H](O)C4,-30
CN=C(NC)NCCC[C@H](N)C(=O)O,24
CCOC(CN1CCN(CC(C)C(=O)c2ccccc2)CC1)c1ccccc1 (centres unmarked),-1
O=c1ccc2c(O)cc(O)cc2o1,-22
N[C@H](Cc1c[nH]c2ccccc12)C(=O)O,2
CC(=O)NCCc1c[nH]c2ccc(O)cc12,18

# Sample 3
# SMILES: CC(C)(C)c1cnc(CSc2cnc(NC(=O)C3CCNCC3)s2)o1
# Species: nude mouse, HH xenograft
# Dose: dose not given
conditions,tumour volume
day 8,28.8 mm³ and 40.8 mm³ and 43.5 mm³ and 8.79 mm³ and 30.4 mm³ and 36.8 mm³ and 49.6 mm³ and 41.9 mm³
day 15,231 mm³ and 57.3 mm³ and 22.6 mm³ and 49 mm³ and 244 mm³ and 38 mm³ and 164 mm³ and 174 mm³
day 2,26.3 mm³ and 36.9 mm³ and 30.1 mm³ and 28.3 mm³ and 30.8 mm³ and 37.5 mm³ and 19.4 mm³ and 31.9 mm³
day 4,62.5 mm³ and 33 mm³ and 60.3 mm³ and 71.2 mm³ and 52.3 mm³ and 49.4 mm³ and 71.4 mm³

# Sample 4
# Cell line: mouse MPNST tumor cells
# Method: high-content immunofluorescence imaging
# Measured: nuclear SOX9
# Tested at: 10 µM
# Time: 12 h
# Notes: mean of 2 replicates
# Reference: DMSO control
# Reading: higher = more nuclear SOX9
SMILES,nuclear SOX9 intensity
COc1ccc(S(=O)(=O)N2c3ccc(Cl)cc3[C@](O)(c3ccccc3Cl)[C@@H]2C(=O)N2CCC[C@H]2C(N)=O)cc1OC,102 % of DMSO
O=C(O)Cn1c(C(=O)Nc2nc(-c3ccccc3Cl)cs2)cc2ccccc21,114 % of DMSO
O=C(NCCO)c1cc(C(=O)NCCO)cc(C(=O)NCCO)c1,95.4 % of DMSO
CC1C(=O)OC2C(O)C34C5CC(C(C)(C)C)C36C(OC(=O)C6O)OC4(C(=O)O5)C12O (centres unmarked),103 % of DMSO
Cc1ccc(OCCSc2ncccn2)c(Br)c1,105 % of DMSO
O=C(O)c1ccc(N2C(=O)C(=Cc3ccc(-c4ccc([N+](=O)[O-])cc4)o3)C=C2c2ccccc2)cc1,97.8 % of DMSO
O/N=C/c1ccc(-c2ccc(O)c(F)c2)c(Cl)c1O,95.2 % of DMSO
NC(N)=Nc1nc(CSCC/C(N)=N/S(N)(=O)=O)cs1,106 % of DMSO

# Sample 5
# Compound: Cc1cc(-n2nc(Cc3cc(F)cc(C(F)(F)F)c3)nc2C)ccc1C(N)=O
# Tested at: 1 µM
target,test,remaining binding
"EIF2AK1 (Homo sapiens, UniProt Q9BQI3)","cell-free assay, competition with immobilised ligand",100%
"PLK4 (Homo sapiens, UniProt O00444)","cell-free assay, competition with immobilised ligand",84%
"eIF-2-alpha kinase GCN2, C-terminal kinase domain (EIF2AK4, Homo sapiens, UniProt Q9P2K8, S808G)","cell-free assay, competition with immobilised ligand",100%
"CDK18 (Homo sapiens, UniProt Q07002)","cell-free assay, competition with immobilised ligand",100%
"GRK1 (Homo sapiens, UniProt Q15835)","cell-free assay, competition with immobilised ligand",87%
"CDKL2 (Homo sapiens, UniProt Q92772)","cell-free assay, competition with immobilised ligand",100%
"ULK1 (Homo sapiens, UniProt O75385)","cell-free assay, competition with immobilised ligand",100%
"PRKCE (Homo sapiens, UniProt Q02156)","cell-free assay, competition with immobilised ligand",100%
"MUSK (Homo sapiens, UniProt O15146)","cell-free assay, competition with immobilised ligand",100%
"PDGFRA (Homo sapiens, UniProt P16234)","cell-free assay, competition with immobilised ligand",100%
"HIPK4 (Homo sapiens, UniProt Q8NE63)","cell-free assay, competition with immobilised ligand",100%
"NTRK3 (Homo sapiens, UniProt Q16288)","cell-free assay, competition with immobilised ligand",94%
"FGR (Homo sapiens, UniProt P09769)","cell-free assay, competition with immobilised ligand",94%
"ALK (Homo sapiens, UniProt Q9UM73, L1196M)","cell-free assay, competition with immobilised ligand",100%
"NEK2 (Homo sapiens, UniProt P51955)","cell-free assay, competition with immobilised ligand",100%
"MAPK8 (Homo sapiens, UniProt P45983)","cell-free assay, competition with immobilised ligand",78%
"MAK (Homo sapiens, UniProt P20794)","cell-free assay, competition with immobilised ligand",100%
"NUAK1 (Homo sapiens, UniProt O60285)","cell-free assay, competition with immobilised ligand",100%
"CDC42BPG (Homo sapiens, UniProt Q6DT37)",competition binding,100%
"COQ8A (Homo sapiens, UniProt Q8NI60)","cell-free assay, competition with immobilised ligand",100%
"TRPM6 (Homo sapiens, UniProt Q9BX84)","cell-free assay, competition with immobilised ligand",100%
"MARK1 (Homo sapiens, UniProt Q9P0L2)","cell-free assay, competition with immobilised ligand",100%
"SLK (Homo sapiens, UniProt Q9H2G2)","cell-free assay, competition with immobilised ligand",92%
"RIOK1 (Homo sapiens, UniProt Q9BRS2)","cell-free assay, competition with immobilised ligand",85%
"ACVRL1 (Homo sapiens, UniProt P37023)","binding, competition with immobilised ligand",100%
